# Measured values pooled from the literature.
# Protocols differ between the studies behind these lines.
# Organism: Staphylococcus epidermidis
Compound,test,test system,conditions,MIC
CC[C@H](C)[C@H](NC(=O)[C@H](C)NC(=O)[C@@H](NC(=O)[C@H](CC(=O)O)NC(=O)[C@H](CCCCN)NC(=O)[C@H](CO)NC(=O)[C@@H](NC(=O)[C@H](CC(N)=O)NC(=O)[C@H](C)NC(=O)[C@@H](NC(=O)[C@H](CCC(=O)O)NC(=O)[C@H](CCCCN)NC(=O)[C@@H](NC(=O)[C@@H](NC(=O)[C@H](Cc1c[nH]cn1)NC(=O)[C@H](CCCCN)NC(=O)[C@@H](NC(=O)[C@H](CCCCN)NC(=O)[C@H](CCCCN)NC(=O)[C@@H](NC(=O)[C@H](CC(C)C)NC(=O)[C@H](CCCCN)NC(=O)[C@H](CC(N)=O)NC(=O)[C@H](Cc1ccccc1)NC(=O)[C@H](CCCNC(=N)N)NC(=O)[C@H](CCCCN)NC(=O)[C@H](CCCNC(=N)N)NC(=O)[C@H](Cc1ccccc1)NC(=O)CN)C(C)C)C(C)C)[C@@H](C)O)[C@@H](C)CC)[C@@H](C)O)C(C)C)C(C)C)C(=O)N[C@H](C(=O)N[C@@H](C)C(=O)NCC(=O)N[C@@H](CO)C(=O)NCC(=O)N[C@H](C(=O)N[C@@H](C)C(=O)N[C@H](C(=O)NCC(=O)N[C@@H](C)C(=O)N[C@@H](C)C(=O)N[C@@H](CCSC)C(N)=O)C(C)C)C(C)C)C(C)C,,"ATCC 35984, CAMHB",,> 1020 µg/mL
CC[C@H](C)[C@H](NC(=O)[C@H](Cc1c[nH]c2ccccc12)NC(=O)[C@H](Cc1ccc(O)cc1)NC(=O)[C@H](CCCCN)NC(=O)[C@H](CC(C)C)NC(=O)[C@@H](N)CO)C(=O)N[C@@H](CCCNC(=N)N)C(=O)N[C@@H](Cc1ccc(O)cc1)C(=O)N[C@@H](CCCCN)C(=O)N[C@@H](CCCNC(=N)N)C(=O)N[C@@H](CCC(N)=O)C(=O)NCC(=O)N[C@@H](C)C(=O)N[C@@H](C)C(=O)N[C@@H](CCCNC(=N)N)C(=O)N[C@@H](Cc1ccccc1)C(N)=O,broth dilution,KCTC 1917,,25 µM
Oc1c(Br)cc(Br)c2nc3cc(Cl)ccc3nc12,broth microdilution,12228,"16 h, 37 °C",0.15 µM
Oc1c(Br)cc(Br)c2nc3cc(C(F)(F)F)ccc3nc12,broth microdilution,12228,,0.04 µM
CC[C@H](C)[C@H](NC(=O)[C@H](Cc1c[nH]c2ccccc12)NC(=O)[C@H](Cc1ccc(O)cc1)NC(=O)[C@H](CCCCN)NC(=O)[C@H](CC(C)C)NC(=O)[C@H](CO)NC(=O)[C@@H](N)Cc1ccccc1)C(=O)N[C@@H](CCCNC(=N)N)C(=O)N[C@@H](Cc1ccc(O)cc1)C(=O)N[C@@H](CCCCN)C(=O)N[C@@H](CCCNC(=N)N)C(=O)N[C@@H](CCC(N)=O)C(=O)NCC(=O)N[C@@H](C)C(=O)N[C@@H](C)C(=O)N[C@@H](CCCNC(=N)N)C(=O)N[C@@H](Cc1ccccc1)C(N)=O,broth dilution,KCTC 1917,,100 µM
Oc1c(Br)cc(Br)c2nc3ccc(C(F)(F)F)cc3nc12,broth microdilution,12228,,0.15 µM
CC(C)C[C@H](NC(=O)[C@H](CCCNC(=N)N)NC(=O)CNC(=O)CNC(=O)[C@@H](N)CCCNC(=N)N)C(=O)N[C@H]1CSSC[C@@H](C(=O)N[C@H](C(=O)NCC(=O)N[C@@H](CCCNC(=N)N)C(N)=O)C(C)C)NC(=O)[C@H](C(C)C)NC(=O)[C@@H]2CSSC[C@H](NC(=O)[C@H](Cc3ccc(O)cc3)NC1=O)C(=O)N[C@@H](CCCNC(=N)N)C(=O)N[C@@H](CCCNC(=N)N)C(=O)N[C@@H](CCCNC(=N)N)C(=O)N[C@@H](Cc1ccccc1)C(=O)N2,broth microdilution,ATCC 51625,"18 h, 37 °C",5 µg/mL
CC[C@H](C)[C@H](N)C(=O)N[C@@H](CCCNC(=N)N)C(=O)N[C@H](C(=O)N[C@@H](Cc1c[nH]c2ccccc12)C(=O)N[C@@H](CCCCN)C(=O)N[C@@H](CCCCN)C(=O)N[C@H](C(=O)N[C@H](C(=O)N[C@@H](CCCNC(=N)N)C(=O)N[C@@H](CCCCN)C(=O)N[C@@H](Cc1c[nH]c2ccccc12)C(=O)N[C@@H](CCCCN)C(=O)N[C@@H](C)C(=O)N[C@H](C(=O)N[C@@H](Cc1c[nH]c2ccccc12)C(=O)N[C@@H](Cc1c[nH]cn1)C(N)=O)[C@@H](C)CC)C(C)C)[C@@H](C)CC)C(C)C,broth dilution,KCTC 1917,,6.3 µM
Cc1cc(C)c2nc3c(Br)cc(Br)c(O)c3nc2c1,broth microdilution,MRSE 35984,"16 h, 37 °C",0.1 µM
CC1COC2=C1C(=O)C(=O)c1c2ccc2c1C(OC(=O)CNC(=O)CN)CCC2(C)C (mixture of isomers),,GDMCC 1.143,48 h,63 µM
CC[C@H](C)[C@H](N)C(=O)N[C@@H](CCCNC(=N)N)C(=O)N[C@H](C(=O)N[C@@H](Cc1c[nH]c2ccccc12)C(=O)N[C@@H](Cc1ccccc1)C(=O)N[C@H](C(=O)N[C@@H](CCCCN)C(=O)N[C@H](C(=O)N[C@@H](CCCNC(=N)N)C(=O)N[C@@H](CCCCN)C(=O)N[C@@H](CCSC)C(=O)N[C@@H](CCCCN)C(=O)N[C@@H](C)C(=O)N[C@H](C(=O)N[C@@H](Cc1ccc(O)cc1)C(=O)N[C@@H](Cc1c[nH]cn1)C(=O)N[C@H](C(N)=O)[C@@H](C)O)[C@@H](C)CC)C(C)C)[C@@H](C)CC)C(C)C,broth dilution,KCTC 1917,,25 µM
Oc1c(Br)cc(Br)c2nc3cc(F)c(F)cc3nc12,broth microdilution,12228,,0.39 µM
CC1COC2=C1C(=O)C(=O)c1c2ccc2c1C(OC(=O)CNC(=O)C(N)CCC(=O)O)CCC2(C)C (mixture of isomers),,GDMCC 1.143,48 h,31 µM

# Repeated from above:
Compound,test,test system,conditions,MIC
CC(C)C[C@H](NC(=O)[C@H](CCCNC(=N)N)NC(=O)CNC(=O)CNC(=O)[C@@H](N)CCCNC(=N)N)C(=O)N[C@H]1CSSC[C@@H](C(=O)N[C@H](C(=O)NCC(=O)N[C@@H](CCCNC(=N)N)C(N)=O)C(C)C)NC(=O)[C@H](C(C)C)NC(=O)[C@@H]2CSSC[C@H](NC(=O)[C@H](Cc3ccc(O)cc3)NC1=O)C(=O)N[C@@H](CCCNC(=N)N)C(=O)N[C@@H](CCCNC(=N)N)C(=O)N[C@@H](CCCNC(=N)N)C(=O)N[C@@H](Cc1ccccc1)C(=O)N2,broth microdilution,ATCC 51625,"18 h, 37 °C",5 µg/mL
CC[C@H](C)[C@H](N)C(=O)N[C@@H](CCCNC(=N)N)C(=O)N[C@H](C(=O)N[C@@H](Cc1c[nH]c2ccccc12)C(=O)N[C@@H](CCCCN)C(=O)N[C@@H](CCCCN)C(=O)N[C@H](C(=O)N[C@H](C(=O)N[C@@H](CCCNC(=N)N)C(=O)N[C@@H](CCCCN)C(=O)N[C@@H](Cc1c[nH]c2ccccc12)C(=O)N[C@@H](CCCCN)C(=O)N[C@@H](C)C(=O)N[C@H](C(=O)N[C@@H](Cc1c[nH]c2ccccc12)C(=O)N[C@@H](Cc1c[nH]cn1)C(N)=O)[C@@H](C)CC)C(C)C)[C@@H](C)CC)C(C)C,broth dilution,KCTC 1917,,6.3 µM
